Results from different studies.
Numbered parts are unrelated; each lists some results of a single study.

Study 1
Target: Histone acetyltransferase KAT6A, both winged helices, GST fusion (KAT6A, Homo sapiens, UniProt Q92794, residues 1-181)
Technique: protein binding microarray
Molecule type: double-stranded DNA, one strand shown
Sample: in vitro
Tested at: not given
Setting: 8-mer, flanks averaged, mean of 2 arrays, mostly near background
Reference: not given
Reading: higher = stronger binding
Measurement: E-score
Target sequence (chain): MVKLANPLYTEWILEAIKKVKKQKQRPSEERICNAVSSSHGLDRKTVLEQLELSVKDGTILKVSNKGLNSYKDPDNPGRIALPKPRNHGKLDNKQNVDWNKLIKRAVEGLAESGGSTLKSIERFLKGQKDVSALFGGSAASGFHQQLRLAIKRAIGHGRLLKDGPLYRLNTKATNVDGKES
ATGCGTTG: 0.138
CATTTAAG: -0.186
AGAATAGG: -0.168
ATATCAAG: -0.0476
CCTGCGTA: 0.0688
ATAGCTAT: 0.048
AACTATGT: -0.177

Study 2
Target: Sal-like protein 4, full length isoform B (SALL4, Homo sapiens, UniProt Q9UJQ4-2, residues 1-616)
Technique: universal PBM
Molecule type: double-stranded DNA, one strand shown
Sample: in vitro
Tested at: not given
Setting: 8-mer, flanks averaged, mean of replicates
Reading: higher = stronger binding
Measurement: E-score
Residues (chain): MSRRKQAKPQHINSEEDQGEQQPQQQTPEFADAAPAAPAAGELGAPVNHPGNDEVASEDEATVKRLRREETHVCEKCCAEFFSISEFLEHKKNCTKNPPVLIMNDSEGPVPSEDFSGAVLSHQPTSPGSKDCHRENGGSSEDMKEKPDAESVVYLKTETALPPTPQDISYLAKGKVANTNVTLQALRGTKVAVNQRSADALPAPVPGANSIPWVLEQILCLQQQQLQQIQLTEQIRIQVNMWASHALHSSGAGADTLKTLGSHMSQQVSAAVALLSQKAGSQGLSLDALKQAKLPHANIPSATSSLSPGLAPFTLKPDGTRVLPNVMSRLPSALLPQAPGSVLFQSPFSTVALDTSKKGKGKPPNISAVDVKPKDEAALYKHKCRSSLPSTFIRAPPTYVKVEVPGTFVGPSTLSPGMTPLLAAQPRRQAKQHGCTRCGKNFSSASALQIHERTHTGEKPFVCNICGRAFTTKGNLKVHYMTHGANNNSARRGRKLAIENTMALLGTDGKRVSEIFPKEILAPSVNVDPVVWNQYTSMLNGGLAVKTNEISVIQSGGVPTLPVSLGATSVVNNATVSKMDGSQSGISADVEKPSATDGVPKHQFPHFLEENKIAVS
GAATTCCA: 0.164
CGACCGGA: -0.376
GGTAGACA: -0.0493
ATAAGTTG: 0.246
CACCACTA: 0.0414
CACTTGTC: -0.0653

Single results of other studies
TBP1: TATA-box-binding protein 1 (TBP1, Arabidopsis thaliana, UniProt P28147, residues 1-200, full length assumed)
Chain of UniProt P28147 (whole entry, looked up): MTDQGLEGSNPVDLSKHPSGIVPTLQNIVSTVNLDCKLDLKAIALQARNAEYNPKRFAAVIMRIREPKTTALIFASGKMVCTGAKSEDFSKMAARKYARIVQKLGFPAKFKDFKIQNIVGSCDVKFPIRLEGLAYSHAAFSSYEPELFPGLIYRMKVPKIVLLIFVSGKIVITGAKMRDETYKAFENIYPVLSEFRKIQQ
AGTAATA  E-score (TBP1; protein-binding microarray; double-stranded DNA, one strand shown, in vitro; not given, k-mer, scored over probes, only values ≥0.25; higher = stronger binding): 0.315
PhoQ, residues 284 288 289 292 302 303 WSHMKI  fold induction (PhoP, residues 12 14 15 18 19 TPLRH (Escherichia coli, UniProt P23836); Sort-seq, refers to: YFP reporter; E. coli; PhoQ-PhoP variant library, together with: 10 µM Mg2+; reference: high Mg2+ state, higher = stronger signaling): 0.885
ATATTCG  E-score (TBP1; protein-binding microarray; double-stranded DNA, one strand shown, in vitro; not given, k-mer, scored over probes, only values ≥0.25; higher = stronger binding): 0.312

Excerpt of the above (single results of other studies):
AGTAATA  E-score (TBP1; protein-binding microarray; double-stranded DNA, one strand shown, in vitro; not given, k-mer, scored over probes, only values ≥0.25; higher = stronger binding): 0.315
PhoQ, residues 284 288 289 292 302 303 WSHMKI  fold induction (PhoP, residues 12 14 15 18 19 TPLRH (Escherichia coli, UniProt P23836); Sort-seq, refers to: YFP reporter; E. coli; PhoQ-PhoP variant library, together with: 10 µM Mg2+; reference: high Mg2+ state, higher = stronger signaling): 0.885
